# Assay results of several laboratories.
# Numbered parts are unrelated; each lists some results of a single study. Substitutions count along the parent as printed.

# Set 1
# Target: Prothrombin, mature alpha-thrombin (F2, Homo sapiens, UniProt P00734)
# Method: aptamer microarray, sandwich
# Form: DNA with 2'F-ANA
# Sample: in vitro
# Tested at: 200 nM
# Setting: whole 15-mer aptamer, many near background
# With: Cy3 exosite-II aptamer, 400 nM
# Reading: higher = stronger binding
# Sequence: GGTTGGTGTGGTTGG
Modification,mean fluorescence intensity
2'F-ANA at 3 6 9 10 14 15,393 a.u.
2'F-ANA at 1 5 6 7 9 11 12 14 15,61 a.u.
2'F-ANA at 1 2 3 4 5 7 9 11 14,48.3 a.u.
2'F-ANA at 1 2 5 6 8 12 13 14,46.5 a.u.
2'F-ANA at 1 2 3 4 6 7 12 13,206 a.u.
2'F-ANA at 2 3 4 5 6 7 8 9 10 13,48.2 a.u.
2'F-ANA at 3 6 7 8 9 12 13 14,541 a.u.
2'F-ANA at 4 8 10 12 13 14,89.1 a.u.
2'F-ANA at 3 7 8 9 10 11 15,497 a.u.
2'F-ANA at 2 6 10 12 13,154 a.u.
2'F-ANA at 3 5 7 8 9 15,164 a.u.
2'F-ANA at 2 3 4 6 7 9 14,224 a.u.
2'F-ANA at 1 2 4 5 10 11 13,47.3 a.u.
2'F-ANA at 1 3 5 6 7 9 12,124 a.u.
2'F-ANA at 3 4 7 9 10 11 15,299 a.u.
2'F-ANA at 1 2 3 4 7 9,173 a.u.
2'F-ANA at 1 3 4 6 8 9 10 11 12 13 14,51.8 a.u.
2'F-ANA at 2 3 10 11 12,469 a.u.
2'F-ANA at 3 4 5 6 7 9 11 14 15,51.3 a.u.
2'F-ANA at 3 4 7 9 10,300 a.u.
2'F-ANA at 2 3 5 6 7 8 12,236 a.u.
2'F-ANA at 2 4 5 6 7 9 10 11 12 15,51.6 a.u.
2'F-ANA at 3 6 10 11 13 15,430 a.u.
2'F-ANA at 2 3 4 6 7 8 10 11 12 14 15,151 a.u.
2'F-ANA at 4 5 7 8 10 11 12 13 15,50.3 a.u.

# Set 2
# Target: ABI1, truncated, D143A, DHFR fusion (Arabidopsis thaliana)
# Method: DHFR PCA, deep sequencing
# Sample: yeast
# Setting: methotrexate growth selection, single substitutions
# With: (+)-ABA 1.4 µM
# Baseline: wild-type fitted maximum
# Reading: higher = stronger binding
# Starting sequence: PYL1, truncated, DHFR fusion (Arabidopsis thaliana); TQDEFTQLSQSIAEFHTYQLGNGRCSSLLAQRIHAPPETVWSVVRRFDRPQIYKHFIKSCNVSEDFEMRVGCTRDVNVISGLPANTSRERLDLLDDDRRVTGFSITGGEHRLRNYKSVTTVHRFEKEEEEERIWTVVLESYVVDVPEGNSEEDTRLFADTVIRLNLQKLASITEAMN
Change,relative binding score [%]
W134I,62.5
A30H,54.1
E38Y,-3.76
S59F,-1.7
R32S,36
V100S,1
Q7R,48.7
T106W,24.9
N61M,52.7
T17C,6.83
A13V,32.4
N61T,75.3
H16K,-10.2
L29E,-2.79
R49Q,67.7
L164T,81.1
D153Q,-1.72

# Set 3
# Target: CCND1, cyclin fold, Cln2 fusion (human)
# Method: yeast growth competition, sequencing
# Sample: yeast
# Setting: weak parent motif
# Baseline: not given
# Reading: higher = stronger binding
# Starting sequence: RB1 docking peptide (human); PKPLKKLRFDIEG
Change,normalised enrichment score
PKPLRKLRLDIEG [K5R F9L],-0.326
PKPLKKLRFDIIG [E12I],0.793
PKPKKKLRFDIEG [L4K],-0.682
KKPLKKLRFDIEG [P1K],0.237
PKPLKTLRFDIEG [K6T],0.141
PKPLAKARFDIEG [K5A L7A],-0.136
PKPLKKLRCDIEG [F9C],0.11
PKPLKKLRWDIEG [F9W],-0.283
PKPLKKLRMDIEG [F9M],0.105
PKTLKKLRFDIEG [P3T],-0.458
PKPLKKFRFDIEG [L7F],-0.19
PKPLKKLPFDIEG [R8P],0.564
PKPLKHLRFDIEG [K6H],0.00875
PKGLKKLRFDIEG [P3G],0.467
PKPLKKLRFDIYG [E12Y],0.241
PKPLKKLRFDIEP [G13P],0.0294
PKPLKKGRFDIEG [L7G],0.031
PKPCKKLRFDIEG [L4C],0.41
PKPLKKLRFDIEC [G13C],0.123
PHPLKKLRFDIEG [K2H],-0.594
PKPLKKCRFDIEG [L7C],-0.0286
PKPLKKLAFDIEG [R8A],-0.0153
PKPMKKLRFDIEG [L4M],0.219
PKPLKKLRRDIEG [F9R],-0.595
PKPLKKLLFDIEG [R8L],-0.0726

# Set 4
# Target: RING finger protein unkempt homolog, zinc fingers 1-6, GST-SBP tag (UNK, Homo sapiens, UniProt Q9C0B0, residues 30-357)
# Sequence of UniProt Q9C0B0 (30-357, looked up): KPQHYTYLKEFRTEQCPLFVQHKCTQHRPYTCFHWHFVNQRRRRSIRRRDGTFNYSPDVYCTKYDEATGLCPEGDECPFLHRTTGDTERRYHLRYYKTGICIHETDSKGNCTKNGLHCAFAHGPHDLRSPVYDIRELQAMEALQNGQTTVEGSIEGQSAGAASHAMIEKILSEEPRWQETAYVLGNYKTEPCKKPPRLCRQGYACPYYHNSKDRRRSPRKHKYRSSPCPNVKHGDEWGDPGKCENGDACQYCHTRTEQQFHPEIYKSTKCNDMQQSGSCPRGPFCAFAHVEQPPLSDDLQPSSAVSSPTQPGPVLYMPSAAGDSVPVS
# Method: RNA Bind-n-Seq
# Form: RNA
# Sample: in vitro
# Tested at: not given
# Setting: RNA with constant flanks, human-mouse chimeric sites, ends assumed
# Baseline: input RNA pool
# Reading: higher = stronger binding
Sequence,bound/input enrichment
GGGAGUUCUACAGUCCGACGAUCAAAGAACCUCUCUCUGAUGAAGAUGAGGACAGUGAUGAUGAUGUUGAACCCAUUUCUGAAUUUCGAUUUGUGCCCAGUGAUAAGUCAGCGUUGGAGGCGAUGUUCACAGCAAUGUGUGAGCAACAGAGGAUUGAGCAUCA,0.239 ratio
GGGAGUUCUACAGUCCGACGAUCGUAUACGGUUAUCGAGGAAAGGACUGUAGAGCGAAUGUAUACCUGCUUCCGACCGGGAAAAUAGUUUAUUUUAUCGCCUCAGUGGUAGUCCUGUUUAAUUAUGAGGAGAGGACUCAGCGACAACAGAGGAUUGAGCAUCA,5.97 ratio
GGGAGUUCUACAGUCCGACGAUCGACUUGGGACCGUCCUGGGCUAGUACAAAUAGCGGCAGUGGAGGCUCAGAGGAAAGUUUUGUUAGUGGAGGCAGUGGUAGAGGCCGUCAUGUACGGUCCUUUACUCGAUAGAUGUGUUCUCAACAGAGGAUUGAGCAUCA,0.698 ratio
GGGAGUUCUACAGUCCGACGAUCGUACUGCAGCAGCAGGGCAAGCUGCAGGAAGCUCUGAUGCAUUAUAAGGAGGCUAUUCGAAUCAGUCCUACCUUUGCUGAUGCUUAUUCUAAUAUGGGAAACACUCUAAAGGAGAUGCAGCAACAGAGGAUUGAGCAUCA,0.202 ratio
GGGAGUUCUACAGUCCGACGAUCUUUCUACUGCAGCAAACCAUGCUACGAGUGAAGGAUCCUAAGAAGUCCCUGGAUUUUUAUACGAGGGUUCUUGGACUGACCCUCCUGCAGAAGCUUGACUUCCCUGCUAUGAAGUUCUCGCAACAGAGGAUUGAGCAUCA,0.157 ratio
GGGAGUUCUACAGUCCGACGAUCUUUCUACUGCAGCAAACGAUGCUAAGAGUGAAGGAUCCUAAGAAGUCCCUGGAUUUUUAUACGAGGGUUCUUGGACUGACCCUCCUGCAGAAGCUUGACUUCCCUGCUAUGAAGUUCUCGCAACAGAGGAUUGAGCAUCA,0.232 ratio
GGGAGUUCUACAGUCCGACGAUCUUUGUAUUUAUGCUAAGCACACGUGCUGGUGGUCUGGGCAUCAAUCUUGCAACUGCUGAUGUAGUCAUUUUGUAUGACUCAGAUUGGAAUCCGCAAGUAGAUCUUCAGGCUAUGGACCGUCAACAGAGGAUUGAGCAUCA,0.124 ratio
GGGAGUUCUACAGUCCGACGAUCACCUCCCCCUCCCGCCUCACCCCACCCCCGCUUUUUGAAAGUGUGUUGGCGUUUCUUUUCCUUCCCCAUACAAAGUGAUUACAGUUUAGAGUCUAUGGGUCUAUCGAAGGGCUUGACGGACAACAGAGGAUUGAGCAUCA,0.566 ratio
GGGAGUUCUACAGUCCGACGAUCCUGGCACUCUAUCAGAUAUAUUAAUUUUUAAAUGUAGAUGUAAUUUUAAAAAUGAAUGGCUACUUUACACGUUUAACUAGGGUUUUACUAUAUAUGUGUACAUAUGUAUAUGUAUUUAUACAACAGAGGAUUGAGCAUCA,11.3 ratio
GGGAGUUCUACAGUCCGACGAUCCCCUCCCCGGGCCACCCACCCCUCCCGGCUCCCCGCCAGAGCAAGGUUUUCUUCUGUUUUCAUAGCAAAUAAGAAAAAUGUUCUACGCACAUUUUGUCCUCAGUAAACGAGGGCCUCUGGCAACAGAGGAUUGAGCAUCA,1.92 ratio
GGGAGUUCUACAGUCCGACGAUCUAUCCAACUUUCUUGCCACAUUUUGAAUUCCAAGACAUUAUUCCUCCAGAUGACUUCCUAACGAGUGAUGAAGAGCAAGAUUUGGUUUUAUUUGGAACUAUGAGAGGACAAGUUGUUGGACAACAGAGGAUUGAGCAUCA,0.114 ratio

# Some of these lines once more (set 1):
Modification,mean fluorescence intensity
2'F-ANA at 3 7 8 9 10 11 15,497 a.u.
2'F-ANA at 2 6 10 12 13,154 a.u.
2'F-ANA at 3 5 7 8 9 15,164 a.u.
2'F-ANA at 2 3 4 6 7 9 14,224 a.u.
2'F-ANA at 1 2 4 5 10 11 13,47.3 a.u.
2'F-ANA at 1 3 5 6 7 9 12,124 a.u.
2'F-ANA at 3 4 7 9 10 11 15,299 a.u.
2'F-ANA at 1 2 3 4 7 9,173 a.u.
2'F-ANA at 1 3 4 6 8 9 10 11 12 13 14,51.8 a.u.
2'F-ANA at 2 3 10 11 12,469 a.u.
2'F-ANA at 3 4 5 6 7 9 11 14 15,51.3 a.u.
2'F-ANA at 3 4 7 9 10,300 a.u.
